Published values gathered from unrelated publications.
± marks the error that the study gave. ≈ marks a conversion by molar mass, not a printed value.
Organism: Pseudomonas aeruginosa

CC[C@H](C)[C@H](NC(=O)[C@H](CCCCN)NC(=O)[C@H](CCCCN)NC(=O)[C@H](CC(C)C)NC(=O)[C@H](CCCCN)NC(=O)[C@H](CCC(=O)O)NC(=O)[C@H](CCCCN)NC(=O)[C@@H](NC(=O)[C@H](CCCCN)NC(=O)[C@H](CC(N)=O)NC(=O)[C@H](CCCNC(=N)N)NC(=O)[C@H](Cc1ccccc1)NC(=O)[C@H](CCCCN)NC(=O)[C@H](CCCNC(=N)N)NC(=O)[C@H](CC(C)C)NC(=O)[C@H](CCCNC(=N)N)NC(=O)[C@H](CCCCN)NC(=O)[C@H](CCCNC(=N)N)NC(=O)[C@@H](N)CC(C)C)[C@@H](C)CC)C(=O)NCC(=O)N[C@@H](CCC(N)=O)C(=O)N[C@@H](CCCCN)C(=O)N[C@H](C(=O)N[C@@H](CCC(N)=O)C(=O)NCC(=O)N[C@@H](Cc1ccccc1)C(=O)N[C@H](C(=O)N1CCC[C@H]1C(=O)N[C@@H](CCCCN)C(=O)N[C@@H](CC(C)C)C(=O)O)C(C)C)[C@@H](C)CC — lethal concentration (inhibition zone method; 11082603, LB 0.8% agar with 154 mM NaCl; overnight, 37 °C): 2.66 µM
CC[C@H](C)[C@H](NC(=O)[C@H](Cc1c[nH]cn1)NC(=O)[C@H](CCCCNC(=O)[C@@H](NC(=O)[C@H](CCCCN)NC(=O)CSC[C@H](NC(=O)[C@H](Cc1ccccc1)NC(=O)[C@H](CCCCNC(=O)[C@H](CC(C)C)NC(=O)[C@@H]1CCCN1C(=O)[C@H](CCCCN)NC(=O)C[C@@H]1O[C@@H](C)[C@@H](O)[C@@H](O)[C@@H]1O)NC(=O)[C@H](CC(C)C)NC(=O)[C@@H]1CCCN1C(=O)[C@H](CCCCN)NC(=O)c1ccc(O[C@@H]2O[C@H](CO)[C@H](O)[C@H](O)[C@H]2O)cc1)C(N)=O)[C@@H](C)CC)NC(=O)[C@@H](NC(=O)[C@H](CCCCN)NC(=O)CSC[C@H](NC(=O)[C@H](Cc1ccccc1)NC(=O)[C@H](CCCCNC(=O)[C@H](CC(C)C)NC(=O)[C@@H]1CCCN1C(=O)[C@H](CCCCN)NC(=O)C[C@@H]1O[C@@H](C)[C@@H](O)[C@@H](O)[C@@H]1O)NC(=O)[C@H](CC(C)C)NC(=O)[C@@H]1CCCN1C(=O)[C@H](CCCCN)NC(=O)c1ccc(O[C@@H]2O[C@H](CO)[C@H](O)[C@H](O)[C@H]2O)cc1)C(N)=O)[C@@H](C)CC)C(N)=O — MBIC (biofilm formation; PAO1; 24 h): 30 µM
CCCCCCCC(=O)NCC(=O)N[C@@H](CC(C)C)C(=O)N[C@@H](CC(C)C)C(=O)N[C@@H](CCCCN)C(=O)N[C@@H](CCCNC(=N)N)C(=O)N[C@H](C(=O)N[C@@H](CCCCN)C(=O)N[C@H](C(=O)N[C@@H](CC(C)C)C(=O)N[C@@H](CC(C)C)C(N)=O)[C@@H](C)O)[C@@H](C)CC — FIC index (checkerboard; ATCC 27853; together with: rifampicin): 0.5
C[C@@H](c1ccccc1)N(CC(N)=O)C(=O)CN(C(=O)CN(CCCCN)C(=O)CN(C(=O)CN(C(=O)CN(CCCCN)C(=O)CN(C(=O)CN(C(=O)CN(CCCCN)C(=O)CN(C(=O)CN(C(=O)CNCCCCN)[C@@H](C)c1ccccc1)[C@@H](C)c1ccccc1)[C@@H](C)c1ccccc1)[C@@H](C)c1ccccc1)[C@@H](C)c1ccccc1)[C@@H](C)c1ccccc1)[C@@H](C)c1ccccc1 — bacterial load (LESB58, mouse, abscess model; maximum tolerated dose, day three): 8.2e+07 CFU/mL
CC[C@H](C)[C@H](NC(=O)[C@H](CCCCN)NC(=O)[C@H](CCCCN)NC(=O)[C@H](CC(C)C)NC(=O)[C@H](CCCCN)NC(=O)[C@H](CCC(=O)O)NC(=O)[C@H](CCCCN)NC(=O)[C@@H](NC(=O)[C@H](CCCCN)NC(=O)[C@H](CC(N)=O)NC(=O)[C@H](CCCNC(=N)N)NC(=O)[C@H](Cc1ccccc1)NC(=O)[C@H](CCCCN)NC(=O)[C@H](CCCNC(=N)N)NC(=O)[C@H](CC(C)C)NC(=O)[C@H](CCCNC(=N)N)NC(=O)[C@H](CCCCN)NC(=O)[C@H](CCCNC(=N)N)NC(=O)[C@H](CC(C)C)NC(=O)[C@@H](N)CC(C)C)[C@@H](C)CC)C(=O)NCC(=O)N[C@@H](CCC(N)=O)C(=O)N[C@@H](CCCCN)C(=O)N[C@H](C(=O)N[C@@H](CCC(N)=O)C(=O)NCC(=O)N[C@@H](Cc1ccccc1)C(=O)N[C@H](C(=O)N1CCC[C@H]1C(=O)N[C@@H](CCCCN)C(=O)N[C@@H](CC(C)C)C(=O)N[C@H](C(=O)N1CCC[C@H]1C(=O)N[C@@H](CCCNC(=N)N)C(=O)N[C@H](C(=O)N[C@@H](CCC(=O)O)C(=O)N[C@@H](CO)C(=O)O)[C@@H](C)O)C(C)C)C(C)C)[C@@H](C)CC — lethal concentration (inhibition zone method; 11092304, LB 0.8% agar with 154 mM NaCl; overnight, 37 °C): 2.67 µM
CC[C@H](C)[C@H](NC(=O)[C@H](CCCNC(=N)N)NC(=O)[C@@H](NC(=O)[C@H](C)NC(=O)[C@@H](NC(=O)[C@@H](NC(=O)[C@H](CC(C)C)NC(=O)[C@H](CCCNC(=N)N)NC(=O)[C@@H](N)C(C)C)[C@@H](C)CC)C(C)C)C(C)C)C(=O)N[C@@H](Cc1c[nH]c2ccccc12)C(=O)N[C@@H](CCCNC(=N)N)C(=O)N[C@@H](CCCNC(=N)N)C(N)=O — survival (PAO1, Galleria mellonella larvae; proleg injection, 20 µg per larva, 24 h post infection, 37 °C, dosed 1 h after infection): 27 ± 11%
CC[C@H](C)[C@H](NC(=O)[C@H](Cc1c[nH]cn1)NC(=O)[C@H](CCCCNC(=O)[C@@H](NC(=O)[C@H](CCCCN)NC(=O)CSC[C@H](NC(=O)[C@H](Cc1ccccc1)NC(=O)[C@H](CCCCNC(=O)[C@H](CC(C)C)NC(=O)[C@@H]1CCCN1C(=O)[C@H](CCCCN)NC(=O)c1ccc(O[C@@H]2O[C@H](CO)[C@H](O)[C@H](O)[C@H]2O)cc1)NC(=O)[C@H](CC(C)C)NC(=O)[C@@H]1CCCN1C(=O)[C@H](CCCCN)NC(=O)c1ccc(O[C@@H]2O[C@H](CO)[C@H](O)[C@H](O)[C@H]2O)cc1)C(N)=O)[C@@H](C)CC)NC(=O)[C@@H](NC(=O)[C@H](CCCCN)NC(=O)CSC[C@H](NC(=O)[C@H](Cc1ccccc1)NC(=O)[C@H](CCCCNC(=O)[C@H](CC(C)C)NC(=O)[C@@H]1CCCN1C(=O)[C@H](CCCCN)NC(=O)c1ccc(O[C@@H]2O[C@H](CO)[C@H](O)[C@H](O)[C@H]2O)cc1)NC(=O)[C@H](CC(C)C)NC(=O)[C@@H]1CCCN1C(=O)[C@H](CCCCN)NC(=O)c1ccc(O[C@@H]2O[C@H](CO)[C@H](O)[C@H](O)[C@H]2O)cc1)C(N)=O)[C@@H](C)CC)C(N)=O — MBIC (biofilm formation; PAO1; 24 h): 30 µM
CC[C@H](C)[C@H](NC(=O)[C@H](CCCNC(=N)N)NC(=O)[C@H](CCCCN)NC(=O)[C@H](CC(C)C)NC(=O)[C@H](CC(C)C)NC(=O)CN)C(=O)N[C@@H](CCCCN)C(=O)N[C@H](C(=O)N[C@@H](CC(C)C)C(=O)N[C@@H](CC(C)C)C(=O)NCCCC[C@H](NC(=O)[C@H](CCCCNC(=O)[C@H](CC(C)C)NC(=O)[C@H](CC(C)C)NC(=O)[C@@H](NC(=O)[C@H](CCCCN)NC(=O)[C@@H](NC(=O)[C@H](CCCNC(=N)N)NC(=O)[C@H](CCCCN)NC(=O)[C@H](CC(C)C)NC(=O)[C@H](CC(C)C)NC(=O)CN)[C@@H](C)CC)[C@@H](C)O)NC(=O)[C@H](CC(C)C)NC(=O)[C@H](CC(C)C)NC(=O)[C@@H](NC(=O)[C@H](CCCCN)NC(=O)[C@@H](NC(=O)[C@H](CCCNC(=N)N)NC(=O)[C@H](CCCCN)NC(=O)[C@H](CC(C)C)NC(=O)[C@H](CC(C)C)NC(=O)CN)[C@@H](C)CC)[C@@H](C)O)C(N)=O)[C@@H](C)O — FIC index (checkerboard; ATCC 27853; together with: rifampicin): 0.5
CC(C)C[C@@H]1NC(=O)[C@H](CCCCN)NC(=O)CSC[C@@H]2NC(=O)[C@H](CC(C)C)NC(=O)[C@H](CC(C)C)NC(=O)[C@H](CCCCN)NC(=O)[C@H](CCCCNC(=O)[C@H](CCCCN)NC1=O)NC(=O)[C@H](CCCCN)NC(=O)[C@H](CC(C)C)NC(=O)[C@H](CCCCN)NC(=O)CSC[C@@H](C(=O)N[C@@H](CCCCN)C(N)=O)NC(=O)[C@H](CCCCN)NC(=O)[C@H](CC(C)C)NC(=O)[C@H](CC(C)C)NC2=O — minimal biofilm inhibitory concentration (PAO1; 24 to 25 h): > 32 µg/mL
C[C@@](O)(C(F)F)[C@H](NC(=O)c1ccc(C#CC#CC2CC2)cc1)C(=O)NO — MIC50 (agar dilution; MDR/XDR clinical isolates): 0.5 µg/mL (≈ 1.33 µM)
CC[C@H](C)[C@H](NC(=O)CNC(=O)[C@H](CCSC)NC(=O)[C@H](CC(C)C)NC(=O)[C@H](CCCCN)NC(=O)[C@@H](N)CC(C)C)C(=O)N[C@H](C(=O)N[C@@H](CCCCN)C(=O)N[C@@H](CCCCN)C(=O)N[C@H](C(=O)N[C@@H](CC(C)C)C(=O)N[C@@H](CCCCN)C(=O)N[C@@H](C)C(=O)N[C@@H](CC(C)C)C(N)=O)C(C)C)C(C)C — fold activity increase (PA14; concentration not given; relative to: MIC of template peptide over MIC): 4 fold
CC[C@H](C)[C@H](NC(=O)[C@H](CCCCN)NC(=O)[C@H](CCCCN)NC(=O)[C@H](CC(C)C)NC(=O)[C@H](CCCCN)NC(=O)[C@H](CCC(=O)O)NC(=O)[C@H](CCCCN)NC(=O)[C@@H](NC(=O)[C@H](CCCCN)NC(=O)[C@H](CC(N)=O)NC(=O)[C@H](CCCNC(=N)N)NC(=O)[C@H](Cc1ccccc1)NC(=O)[C@H](CCCCN)NC(=O)[C@H](CCCNC(=N)N)NC(=O)[C@H](CC(C)C)NC(=O)[C@H](CCCNC(=N)N)NC(=O)[C@H](CCCCN)NC(=O)[C@H](CCCNC(=N)N)NC(=O)[C@H](CC(C)C)NC(=O)CN)[C@@H](C)CC)C(=O)NCC(=O)N[C@@H](CCC(N)=O)C(=O)N[C@@H](CCCCN)C(=O)N[C@H](C(=O)N[C@@H](CCC(N)=O)C(=O)NCC(=O)N[C@@H](Cc1ccccc1)C(=O)N[C@H](C(=O)N1CCC[C@H]1C(=O)N[C@@H](CCCCN)C(=O)N[C@@H](CC(C)C)C(=O)N[C@@H](C)C(=O)N1CCC[C@H]1C(=O)N[C@@H](CCCNC(=N)N)C(=O)N[C@H](C(=O)N[C@@H](CC(=O)O)C(=O)N[C@@H](Cc1ccc(O)cc1)C(=O)O)[C@@H](C)O)C(C)C)[C@@H](C)CC — lethal concentration (inhibition zone method; 14, LB 0.8% agar with 154 mM NaCl; overnight, 37 °C): 2.04 µM
O=C1NC(=O)c2c(NCCCc3cccc(O)c3)cccc21 — secreted pyoverdine (125 µM, 13 h; relative to: untreated): ~4 fold

Some of these lines once more:
CC(C)C[C@@H]1NC(=O)[C@H](CCCCN)NC(=O)CSC[C@@H]2NC(=O)[C@H](CC(C)C)NC(=O)[C@H](CC(C)C)NC(=O)[C@H](CCCCN)NC(=O)[C@H](CCCCNC(=O)[C@H](CCCCN)NC1=O)NC(=O)[C@H](CCCCN)NC(=O)[C@H](CC(C)C)NC(=O)[C@H](CCCCN)NC(=O)CSC[C@@H](C(=O)N[C@@H](CCCCN)C(N)=O)NC(=O)[C@H](CCCCN)NC(=O)[C@H](CC(C)C)NC(=O)[C@H](CC(C)C)NC2=O — minimal biofilm inhibitory concentration (PAO1; 24 to 25 h): > 32 µg/mL
